Results gathered from unrelated publications.
Numbered parts are unrelated; each lists some results of a single study.

Block 1
Target: RNA binding protein fox-1 homolog 2, RRM domain, GST-SBP tag (RBFOX2, Homo sapiens, UniProt O43251-10, residues 100-194)
Method: RNA Bind-n-Seq
Form: RNA
Medium: in vitro
Concentration: 365 nM
Notes: natural RNA segment, single round, ends assumed
Relative to: no-protein control
Reading: higher = stronger binding
Construct (chain): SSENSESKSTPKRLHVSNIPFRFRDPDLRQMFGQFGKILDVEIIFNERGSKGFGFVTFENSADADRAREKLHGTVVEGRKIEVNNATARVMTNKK
Oligonucleotide	RBNS enrichment (R)
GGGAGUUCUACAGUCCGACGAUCUCAGUUCUAGGAAGCAGGAGAGCUCGCUUGUGCAGUGUCCCACACAGCAGGGCUGAGGGGCCUAGGGCUGCCUGCUCUCCAAAGCAGAUGACCCAUGUGCGGCAGGGACUUGGAAUUCUCGGGUGCCAA	0.419
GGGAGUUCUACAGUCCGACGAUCUAGUGUGCCCCAAAUGCAGCUUCACUUUCCAGGUACCCUGAUGCAGAAUAAAGUUUUCAUCAUAAACACAGCUUCUGUAGUAUGUUUUCAGAUGAGUGAGUGUUCUUGAGUGGAAUUCUCGGGUGCCAA	6.43
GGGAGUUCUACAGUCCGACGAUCCAUUUCUUGGCAUUGGAAUUCUACUGGAAAAAAAUACAAAAAGCAAAACAAAACCCUCAGCACUGUUACAAGAGGCCAUUUAAGUAUCUUGUGCUUCUUCACUUACCCAUUGGAAUUCUCGGGUGCCAA	1.21
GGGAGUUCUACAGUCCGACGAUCCAAGGAGCUAAUUAUUAAUAACAAUCAUUGCACACUGAGUCUUAGCGUUUCUGAUGGAAACAGUUUGGAUUGUAUAAUAACGCCAAGCCCAGUUGUAGUCGUUUGAGUGCUGGAAUUCUCGGGUGCCAA	0.642
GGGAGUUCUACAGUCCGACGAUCAGCACGGGGGCCCGGAGGGAGAGCCCCUUCAGGGUUCAGAGUGAAGUACUACCUUGCCAGGGACUCAGUCAGGGGACUUUGGGAGAAAGACUUGAUAGCCAGGCUGACUGUGGAAUUCUCGGGUGCCAA	0.656
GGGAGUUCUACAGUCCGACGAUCUUCCUUUUUAUAUAAAAGUAUAUUGUUUAAAACAGUAGCUAUAGCCAUUAACCAAAGGACAGAUGUGUAUAUGUGUGUGUGUGUAUGUGUGUGUAUGUAUAUGAUACAUAUGGAAUUCUCGGGUGCCAA	0.998
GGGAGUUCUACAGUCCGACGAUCUUUAUUGGUUUCCAAAGAAACAAACCAAACCAACCAGCUCUUGGAUGUGAAGAUAAAAUAGUGCUUUUUUGAAAUGGAGAGGAAAAACUUGGGGAGGAAGAGGCCUGCUGUGGAAUUCUCGGGUGCCAA	0.746
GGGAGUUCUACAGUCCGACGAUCAGGGAUUGAUGAAUGGGAAGAGUUGAGUCAGACCAGUAAGCCCGUCCUGGGUUCCUUGAACAUGUUCCCAUGUAGGAGGUAAAACCAAUUCUGGAAGUGUCUAUGAACUUUGGAAUUCUCGGGUGCCAA	0.516
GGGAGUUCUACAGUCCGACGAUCCAACAGUUCUCACUGCCUGGCCUUUGGAAGGUCACUUAACAUUUGUUGUUGUUUUGUUUUGUUUUUUGUUUUGCUUUUGCGGUAACUGCACCACUAUGAAACAUUGACUUUGGAAUUCUCGGGUGCCAA	0.302
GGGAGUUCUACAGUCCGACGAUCGAGUUAUAUUUUGUACUAUGGUUUAGGGCUAUGACUAAUAUUUCAGGCCAUUUCCAGUGAAAGAAACUUAGUUUUACAAGAAAACAUUUGCUACUGAAUGCUUACACUAAUGGAAUUCUCGGGUGCCAA	0.543
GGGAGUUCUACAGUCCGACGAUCCCAAUCUUAUAUGAAUAUUUUUCAUAAAAUAGUUGUGAUUAUAUUUUUACAUCUUUUAUGCACCAAAUUAUAAUGGUCACAUAUGUUUAGCCCGUUGCCACUGUUCGGGAUGGAAUUCUCGGGUGCCAA	0.673
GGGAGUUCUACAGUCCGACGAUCGAGGGAACCUCUAAAUAAUUUCAGGGGUAGGGGAGAUGUUGUCAAUAGGAAAUGGGAUAAAAUAUCAAGAGACAAUGAAAACACUGCCUUGACAUGAGGACCAGCAAGUUUGGAAUUCUCGGGUGCCAA	1.1

Block 2
Target: RING finger protein unkempt homolog, zinc fingers 1-6, GST-SBP tag (UNK, Homo sapiens, UniProt Q9C0B0, residues 30-357)
Method: RNA Bind-n-Seq
Form: RNA
Medium: in vitro
Concentration: not given
Notes: RNA with constant flanks, human-mouse chimeric sites, ends assumed
Relative to: input RNA pool
Reading: higher = stronger binding
Residues (chain): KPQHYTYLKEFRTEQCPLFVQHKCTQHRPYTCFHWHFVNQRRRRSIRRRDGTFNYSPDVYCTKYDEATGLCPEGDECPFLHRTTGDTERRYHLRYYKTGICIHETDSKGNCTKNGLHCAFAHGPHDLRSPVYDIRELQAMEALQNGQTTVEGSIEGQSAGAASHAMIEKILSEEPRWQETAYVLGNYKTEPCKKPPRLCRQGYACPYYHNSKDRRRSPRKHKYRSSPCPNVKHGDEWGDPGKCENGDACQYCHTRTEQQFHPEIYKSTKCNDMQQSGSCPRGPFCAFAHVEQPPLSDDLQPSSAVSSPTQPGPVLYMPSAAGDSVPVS
Oligonucleotide	bound/input enrichment
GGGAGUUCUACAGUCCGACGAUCAAAUCGUGUGUGUCAAAUAUUGAAAGUGCUUUAUCUACACUCCAGUAUGUAAGCAGCAUAGUAGUUUCUUUAGAGAAUAGGUCAGCCAUUGUAAAGUACAAUGCAAGCUUAGUCACUCCACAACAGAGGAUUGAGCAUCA	13.6 ratio
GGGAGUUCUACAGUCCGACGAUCCGGAGCCCCUCCCUCUCACAGGCCCAAGAUAUAACCCACCAGUGCCUUUUGUCUUCCUGUCAGCUCUGUCAAUCACGCCUGUCCUCUCACGCCCACACCAAGUGCCCAAAGUGGGGAGGGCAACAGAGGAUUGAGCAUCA	0.385 ratio
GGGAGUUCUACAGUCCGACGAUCGAGUCGAGCAAACUUGAAACAAUUCGUUAUCUUGCAGCCUCAGUGUUCACUUGCUUGGCGAUAGCAUUGGGGUUUUAUAGGUUCUGGGGAAGUAGUAGACGAUGAUGCUGCCGCUGCUGCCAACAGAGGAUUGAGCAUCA	0.79 ratio
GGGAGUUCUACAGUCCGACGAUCCUCAGAGAUGUGGCAUAUCAGUAUGUGAAAAAGGGGUCUCGUAUAUUUGUGGAAGGGAAAGUGGACUAUGGCGAGUACAUGGAUAAAAACAAUGUGAGGCGACAAGCAACAACAAUCAUACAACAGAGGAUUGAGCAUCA	0.352 ratio
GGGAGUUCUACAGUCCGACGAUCGCAAAGGAUGAUGAGGCAGCUGCAGUUGCCCUUUCCUCUCUCGUUCAUGCUUUGGAUGAGUUAAACAUGGUCGCCAUCGUCCGAUAUGCUUAUGACAAAAGAUCUAAUCCUCAAGUUGGUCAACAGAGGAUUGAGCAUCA	0.196 ratio
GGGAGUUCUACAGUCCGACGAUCCACAGAGGCACCACCCCCCCCUCCUCCUUUCCACACCUGCAAACUCUUUUACUUGGGCUGAAUAUUUAGUGUAAUUACAUCUCAGCUUUGAGGGCUCCUGUGGCAAAAUACCCGGAUAAACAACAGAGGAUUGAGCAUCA	1.13 ratio
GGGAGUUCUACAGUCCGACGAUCCACUCGAGCCAGCACCAUUUCUGUUUCUCCCUGGGCUGCGGAAAGCCAGAAGAUUUUAUCUAGCUUAUACAAGGCUGCUGGUGUUCCCUCUUUUUUUCCACGAGGGUGUUUUUGGCUGCACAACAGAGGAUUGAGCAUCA	0.602 ratio
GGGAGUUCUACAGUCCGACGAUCCGCUUGGAUGAGGCGGGUGUUACUGAUGAAGUGCUAGAUUCUGCCAUGCAAGCCUUCCUUCUGGAGGUUAUCGUUAAACAUGGGGAGCCGGCACCUUAUUUAUGUAACAAAGAUCCGUUUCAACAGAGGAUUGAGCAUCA	0.0941 ratio
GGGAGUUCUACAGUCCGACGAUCGUGUCCUGCUUUCAACUAUCACUGAGGAGGCAUCUCUACUGUUCUGUUAAAAUCAGGACUGUAGCGCUGUGUCACCACAUGAGAGUUCAGAAGCAGCCUUUCUGUGGAGGGUGGGAAUGACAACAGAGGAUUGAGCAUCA	0.111 ratio
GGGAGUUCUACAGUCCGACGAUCGCUCUUGGGAAUGUAAUCAGCGCCUUGGGGGACAAGAGCAAGAGAGCCACCCAUGUCCCUUACAGAGAUUCCAAGCUAACAAGACUAUUGCAGGAUUCCCUUGGGGGUAACAGCCAAACCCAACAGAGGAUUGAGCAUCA	0.138 ratio
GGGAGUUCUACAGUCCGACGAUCUACUCAACUUUCUUUCCACAUUUUGAAUUCCAAGAUGUUAUUCCUCCAGAUGACUUCCUAACGAGUGAUGAAGAGCAAGAUUUGGUUUUAUUUGGAACUAUGAGAGGACAAGUUGUUGGACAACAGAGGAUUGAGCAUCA	0.177 ratio

Block 3
Target: Ras GTPase-activating protein-binding protein 1, C-terminal RGG region (G3BP1, Homo sapiens, UniProt Q13283)
Sequence of UniProt Q13283 (whole entry, looked up): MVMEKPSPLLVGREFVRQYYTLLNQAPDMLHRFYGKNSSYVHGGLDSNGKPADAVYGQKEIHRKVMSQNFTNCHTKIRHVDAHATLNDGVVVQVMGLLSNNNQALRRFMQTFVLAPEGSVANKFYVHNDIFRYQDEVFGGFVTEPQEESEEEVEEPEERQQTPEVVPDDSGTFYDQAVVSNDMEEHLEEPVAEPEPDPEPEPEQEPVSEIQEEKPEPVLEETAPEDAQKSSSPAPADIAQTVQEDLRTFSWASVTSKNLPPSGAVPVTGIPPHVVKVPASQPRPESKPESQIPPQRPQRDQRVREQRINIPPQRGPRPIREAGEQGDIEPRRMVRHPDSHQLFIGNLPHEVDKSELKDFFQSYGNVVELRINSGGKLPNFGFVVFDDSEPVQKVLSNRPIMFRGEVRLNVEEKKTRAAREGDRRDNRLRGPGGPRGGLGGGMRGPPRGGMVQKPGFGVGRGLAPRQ
Method: RNA Bind-n-Seq
Form: RNA
Medium: in vitro
Concentration: 1 µM
Notes: whole 134-nt RNA, ends assumed
Together with: 150 mM KCl
Relative to: input library
Reading: higher = stronger binding
Oligonucleotide	log2 enrichment
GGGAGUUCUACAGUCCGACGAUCUGUCGGGGCCAAAGUGGUAACGAACGCCCGCAGCCCGGGGGCUCGAUGCUAUGGAUUCGUCACCAUGUCGACAUCUGACGAGGCGACCAAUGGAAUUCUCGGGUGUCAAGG	-2.58
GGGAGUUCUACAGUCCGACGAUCCACAGAUAACACGCACCCACACAGACACAGAGGGAAGGGGUUGGGAUGGGGACAGGGUGCACAGCAGGGCGGGGUAGGACCCCAGCCCCUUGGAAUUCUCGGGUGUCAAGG	-0.338
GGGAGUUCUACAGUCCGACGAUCUCCUGUGCUACACAUCGUAUGUACCGAAUCGGGGUUUUUUGGGGUUUUUUGGUUUUUUGGAAAGUAUUAUGUUACGCCGUUCGGAUCUGCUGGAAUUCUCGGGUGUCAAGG	-0.517
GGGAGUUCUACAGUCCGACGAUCCACAGACAACACGCACCCACACAGACACAGAGGGAAGGGGUUGGGAUGGGGACAGGGUGCACAGCAGGGCCGGGUAGGACCCCAGCCCCUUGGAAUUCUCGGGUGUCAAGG	-1.02
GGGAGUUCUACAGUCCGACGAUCCCUGUGCUACACAUCGUAUGUACCGAAUCGGGGUUUUUUUGGGGUUUUUUUGGGGUGGGGAAAGUAUUAUGUUACGCCGUUCGGAUCUGCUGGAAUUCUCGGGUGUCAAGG	-0.0543
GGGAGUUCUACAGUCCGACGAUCCACAGACAACACGCACCCACACAGACACAGAGGGAAGGGGUUGGGAUGGGAACAGGGUGCACAGCAGGGCGGGGUAGGACCCCAGCCCCUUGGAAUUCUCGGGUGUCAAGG	-0.678
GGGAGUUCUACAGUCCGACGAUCCACAGACAACACGCACCCACACAGACACAGAGGGAAGGGGUUGGGAUGGGGACAGAAAGCACAGCAGGGCGGGGUAGGACCCCAGCCCCUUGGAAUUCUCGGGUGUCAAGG	-0.187
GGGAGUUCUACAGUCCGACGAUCUUCUCUUCACUCCCACCAGUGCGGGUGGUCUUUGCAGUGACUAUGGAAGGCAGUGCACGGAAAGUCAUCACUGUCCGGUCAGCCCUCAUUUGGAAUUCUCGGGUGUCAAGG	-0.509
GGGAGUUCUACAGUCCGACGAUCUUUCCAAGAAGUGCACUGAAAAUGACAUCCGAGUCAUGUUCUCUUCGUUUGGACAGAUUGAAGAAUGCCGGAUAUUGCGGGGACCUGAUGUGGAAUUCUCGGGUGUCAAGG	-0.378
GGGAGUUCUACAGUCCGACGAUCAAGUCCUGUGCUACACAUCGUAUGUACCGAAUCGGGGAGGGGUGGGGAAAAAGGGGAAAGUAUUAUGUUACGCCGUUCGGAUCUGCACUUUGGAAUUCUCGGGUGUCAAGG	1.71

Block 4
Target: Sal-like protein 4, full length isoform B (SALL4, Homo sapiens, UniProt Q9UJQ4-2, residues 1-616)
Method: universal PBM
Form: double-stranded DNA, one strand shown
Medium: in vitro
Concentration: not given
Notes: 8-mer, flanks averaged, mean of replicates
Reading: higher = stronger binding
Oligonucleotide	E-score
TAATGGTA	0.144
AGGAGTTA	0.15
GCAGGCGA	-0.217
CAGCGAGG	-0.216
ATTAAACC	0.218
CTAATCGC	-0.019
AGACAAAC	0.106
CGGCGAAC	-0.112
ACCTAGTC	-0.0687
AAGGGTAG	-0.0283
AAGTCATT	0.158
GGTCCATA	0.136
GCACACAC	-0.0015
ACCATCAG	-0.0932
AAGTAACA	0.139
ACTGTGTA	0.0656
CCGAATCA	-0.0151
ACGCCAGC	-0.31
ACACGGAA	0.00235
CCTTGCAC	-0.0957
ACTATTCC	0.0817
AACTACGC	0.00032
GTAGAAAC	0.00724

Excerpt of the above (block 4):
Oligonucleotide	E-score
CAGCGAGG	-0.216
ATTAAACC	0.218
CTAATCGC	-0.019
AGACAAAC	0.106
CGGCGAAC	-0.112
ACCTAGTC	-0.0687
AAGGGTAG	-0.0283
